Experimental data of several laboratories.
Each line is one published result; not all experiments were run side by side.
DRD2: D(2) dopamine receptor (DRD2, Homo sapiens, UniProt P14416)
Chain of UniProt P14416 (whole entry, looked up): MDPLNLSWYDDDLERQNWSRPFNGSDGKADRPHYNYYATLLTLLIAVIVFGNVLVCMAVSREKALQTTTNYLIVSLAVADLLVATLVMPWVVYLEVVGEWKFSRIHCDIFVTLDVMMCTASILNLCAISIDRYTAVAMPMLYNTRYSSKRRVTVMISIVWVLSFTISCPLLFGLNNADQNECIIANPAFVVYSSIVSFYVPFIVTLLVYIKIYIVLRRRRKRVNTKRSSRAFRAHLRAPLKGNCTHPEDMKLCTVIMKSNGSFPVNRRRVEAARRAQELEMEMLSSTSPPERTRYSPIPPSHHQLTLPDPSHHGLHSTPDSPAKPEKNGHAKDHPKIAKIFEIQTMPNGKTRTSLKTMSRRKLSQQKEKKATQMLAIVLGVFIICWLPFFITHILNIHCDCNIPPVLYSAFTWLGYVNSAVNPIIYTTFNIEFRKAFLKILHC

SMILES	target	read-out	mode	method	concentration	quantity	result
Cc1cc(Nc2nc(C[C@@]3(C(=O)O)CCN(Cc4cccc(Cl)c4F)[C@H](C)C3)cc(C)c2F)[nH]n1	DRD2	–	agonist	–	10 µM	activation	1.11%
Cc1sc2c(c1C)C(c1ccc(Cl)cc1)=NC(CC(=O)OC(C)(C)C)c1nnc(C)n1-2 (centres unmarked)	DRD2	–	–	antagonist radioligand binding	1 µM	specific binding	102%
Cc1cc(-c2ccc3ccccc3c2)nnc1NCCN1CCN(C)CC1	DRD2	–	antagonist	–	concentration not given	antagonist activity	negative
CN[C@@H]1[C@H](O)[C@H](NC)[C@H]2O[C@]3(O)[C@H](O[C@@H]2[C@H]1O)O[C@H](C)C[C@H]3NC(=O)Cc1cc(Cl)ccn1	DRD2	–	–	–	10 µM	inhibition	-1%
COc1ccc(F)cc1S(=O)(=O)Nc1cnc2c(c1)C(=O)NCCO2	DRD2	radioligand binding	inhibitor	–	10 µM	inhibition	3%
Cc1ccc2c(n1)c(-c1cccc(S(C)(=O)=O)c1)c(C)n2C/C(F)=C/CN	DRD2	ligand displacement	–	radioligand	10 µM	inhibition	5%
N[C@H](C(=O)N1CCCC1)C1CCN(c2nccc3c(-c4ncc(Cl)cc4Cl)cccc23)CC1	D(2) dopamine receptor, short isoform (DRD2, Homo sapiens, UniProt P14416)	functional response	agonist	–	10 µM	response	30%
C/C(=N\OCCCN1CCCCC1)c1ccc(C(F)(F)F)cc1	DRD2	–	agonist	cAMP	10 µM	activation	-11.5%

For quick reference, copied from above:
SMILES	target	read-out	mode	method	concentration	quantity	result
CN[C@@H]1[C@H](O)[C@H](NC)[C@H]2O[C@]3(O)[C@H](O[C@@H]2[C@H]1O)O[C@H](C)C[C@H]3NC(=O)Cc1cc(Cl)ccn1	DRD2	–	–	–	10 µM	inhibition	-1%
